Published values gathered from unrelated publications.
Every numbered part comes from another study and shows a few of its results, in no order. Positions count from the first letter of the parent shown.

Series 1
Target: CCNA2, cyclin fold, Cln2 fusion (human)
Method: yeast growth competition, sequencing
Medium: yeast
Setting: strong parent motif
Relative to: not given
Direction: higher = stronger binding
Starting sequence: RBL1 docking peptide (human); GSAKRRLFGEDPP; partner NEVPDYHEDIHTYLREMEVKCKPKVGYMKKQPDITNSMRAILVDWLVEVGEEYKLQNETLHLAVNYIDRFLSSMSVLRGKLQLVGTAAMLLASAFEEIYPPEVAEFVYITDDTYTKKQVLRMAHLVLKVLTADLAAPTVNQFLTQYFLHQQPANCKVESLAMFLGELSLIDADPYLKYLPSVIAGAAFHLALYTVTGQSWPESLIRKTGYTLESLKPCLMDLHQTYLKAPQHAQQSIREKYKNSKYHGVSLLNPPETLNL
Variant | normalised enrichment score
L7R | 0.54
P12S | 6.59
G9E | 6.13
S2F | 4.36
K4R | 6.65
R5T | 0.539
P13F | 5
K4E | -0.244
G9H | 5.52
E10F | 5.27
R5A | 1.17
G9N | 7.22

Series 2
Target: Centromere-binding protein 1, full length, His-tagged (CBF1, Saccharomyces cerevisiae, UniProt P17106, residues 1-351)
Sequence of UniProt P17106 (whole entry, looked up): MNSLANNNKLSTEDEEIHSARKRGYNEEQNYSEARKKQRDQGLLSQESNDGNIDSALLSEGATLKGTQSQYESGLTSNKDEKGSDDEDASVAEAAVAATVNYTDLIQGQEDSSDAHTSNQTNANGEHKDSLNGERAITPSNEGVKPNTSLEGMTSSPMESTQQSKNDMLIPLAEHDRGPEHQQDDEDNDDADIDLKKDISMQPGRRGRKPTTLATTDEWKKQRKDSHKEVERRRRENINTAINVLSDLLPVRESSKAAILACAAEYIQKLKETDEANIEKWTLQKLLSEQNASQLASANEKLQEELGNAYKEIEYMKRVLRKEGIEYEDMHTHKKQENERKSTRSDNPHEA
Method: competition protein-binding microarray
Form: double-stranded DNA, one strand shown
Medium: in vitro
Concentration: 2 µM
Setting: whole 60-bp probe, lowest competitor level
Added: Pho4 competitor, 0.05 µM
Direction: higher = stronger binding
Constant ends, left off below: … GTCTTGATTCGCTTGACGCTGCTG
Oligonucleotide | fluorescence intensity [a.u.]
CTTCTGTAAATTTTTCACGTGCCCTGACGCGCCCCG | 935
TCGCGAGAATTTGGGCACATGTGTGCCGGAATGTAT | 234
CTTTCCCGATCTTGTCACCACACTTTAGCACATTTG | 83.6
ATCTAGCTCTGCACACATGTGACGGAACGAAGCATC | 443
AAATCGGAGGTTTCACACGTAATTACATAAAGAAGA | 69.5
CAGTCAAAAGAACAGCATCGATGTCCAATGGGTCTA | 61.9
CATACCCAACCTTGAATTGTGGGTGAAGATATTTGT | 84.5
CGGGGTTAAGTTTGGGTCGTGGGTGGCTTGCAGCAG | 79.9
GGTGTCCATCCCCGTCACATGGTGCAGTACTTCCTT | 626
TCGACACACCCGCCGCATGTGCGACAATTTCTTCGG | 90.3
CAACTTCTTTTATTGCACGTACCTTTTGGACTGGTT | 94.3
CATGTTATCTAGCATCACCTGCCCATCATTTATCTG | 296
ATTCAATGTTCTCAGGACGTGCTAAAAGGAAACCCA | 73.5
GTCTTGTCTCATTGTCACCTAACTTTCCCCACTTCA | 94.7
CAGTTAATTTTGGATCTCGTGACGGGTAATCTTCTT | 1700

Series 3
Substance: PhoQ, residues 284 288 289 292 302 303 WVSSAF
Method: Sort-seq
Item: YFP reporter
Medium: E. coli
Setting: PhoQ-PhoP variant library
Added: 10 µM Mg2+
Relative to: high Mg2+ state
Direction: higher = stronger signaling
target | fold induction
PhoP, residues 12 14 15 18 19 QQAYL (Escherichia coli, UniProt P23836) | 14.4
PhoP, residues 12 14 15 18 19 LFHKL (Escherichia coli, UniProt P23836) | 0.685
PhoP, residues 12 14 15 18 19 GMGLL (Escherichia coli, UniProt P23836) | 25.2

Series 4
Target: Histone acetyltransferase KAT6A, winged helix 1, GST fusion (KAT6A, Homo sapiens, UniProt Q92794, residues 1-85)
Method: protein binding microarray
Form: double-stranded DNA, one strand shown
Medium: in vitro
Concentration: not given
Setting: 8-mer, flanks averaged, mean of 2 arrays, mostly near background
Relative to: not given
Direction: higher = stronger binding
Residues (chain): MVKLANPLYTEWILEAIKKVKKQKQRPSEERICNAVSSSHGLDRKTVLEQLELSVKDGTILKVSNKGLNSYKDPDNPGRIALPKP
Oligonucleotide | E-score
CAAGTACC | 0.0482
CTCCTCAA | -0.0372
CGTTGGTA | 0.0632
ACCGTGAC | 0.147
GCTTTAAC | 0.0917
CGGACCAC | 0.0372
CGATCACG | 0.26
AAGAGAGG | -0.179
AAGCATTC | -0.0543
CGAAAGCG | 0.261
ACAAACGC | 0.24
